Published values collected from several papers.
Parts stem from different laboratories: compare values within a part only.

Study 1 — method: RNA Bind-n-Seq; form: RNA; medium: in vitro; tested at: 100 nM; baseline: input RNA pool; reading: higher = stronger binding
Target: RING finger protein unkempt homolog, zinc fingers 1-6, SBP tag (UNK, Homo sapiens, UniProt Q9C0B0, residues 30-357)
Sequence of UniProt Q9C0B0 (30-357, looked up): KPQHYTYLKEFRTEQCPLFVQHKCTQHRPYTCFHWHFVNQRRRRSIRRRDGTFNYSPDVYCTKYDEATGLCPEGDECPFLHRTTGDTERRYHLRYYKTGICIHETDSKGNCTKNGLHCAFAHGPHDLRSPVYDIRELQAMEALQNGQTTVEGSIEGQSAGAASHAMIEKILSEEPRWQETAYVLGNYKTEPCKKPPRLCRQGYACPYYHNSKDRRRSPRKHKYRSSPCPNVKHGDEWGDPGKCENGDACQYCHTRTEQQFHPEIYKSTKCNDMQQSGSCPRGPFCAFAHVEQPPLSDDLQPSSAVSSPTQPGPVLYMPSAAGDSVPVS
Notes: RNA with constant flanks, vertebrate orthologous sites, ends assumed
Shared flanks, not repeated: GGGAGUUCUACAGUCCGACGAUC … CAACAGAGGAUUGAGCAUCA
Sequence	bound/input enrichment
CAGUAGAAUUACACUAAUACUGAAGUUAAAAGAGUAUCAAAGGUGAUGAUAAAGUGUGUGUUGGUAGUUACUAAAAGAACCUUAGCUGUUAUUGCCUUGUAUUUCUAUCCCUUGUUUCAG	0.447 ratio
AUCCCUCAGUGACAGUAUGCCAUCUGUAGCAGAUUCCCACUCUAGUCAUUUUUCUGAAUUUAGUUGUUCUGACUUAGAAAGCAUGAAAACUUCUUGUAGUCAUGGUUCCAAUGAUUAUCA	1.77 ratio
AUGGGGGUGGGGUGGGUAAGGGACGUGGACGAUAGGAUGCUACUGGGAUUUUUAAGUGCUCCGGGGUUUGUUUUUCUUCUUCCCACUUUCUGUUUCUGUUCUUCCCAUUCAUUGGAUGCA	0.675 ratio
GGAAAUUCCCAUUGUCACUGAGAACCACCAAAUCUGACUUUUACAUUUGGUCUCAGAAUUUAGGUUCCUGCCCUGUUGGUUUUUUUUUUUUUUUUUAACAGUUUUCAAAAGUUCUUAAAG	0.957 ratio
UCCCUUUGCGCCUGUGUCCUUGGAGGGGCCUCCUCUCCACCAAGAAGAAAAAAGCUCGCCCAGAUUCUUUACGCAUCUGACUCUACCGUUCUGGUUUUGUUUUCUAUUAUUUUUGGAUAU	0.144 ratio
AAGCCAUCUUUUCCACAUUUUCUGUAAAUAAUGGAUAAUCAUUUUAAAAAAAUUUAUUUUUAGUGCUGUUUUAACAAUGUAGAUAGAUCAUAAAUGUACUUGCUGAAUUCAAUCAUUUUU	0.688 ratio
CAACUCAAUGGUUGAGGGUUCGGAGCUCAAAAAGGUUCGCUCCAACUCUAGAAUUUACCAUAGGUAUUUUUUAUUGGAUGCCGACAUGCAGAGCCUGAGGUGGGAACCAUCAAAGAAGGA	0.24 ratio
CAUGUCCUGGUUACUGUGAUAUUUAAAAUAUCCACAGUUCUCACUUGUUCCAAAUGAGCCUAAUAAUUGCCUACAAAUAUCUUUCUCUUACCUGUUAUUUAUCAAUUUUUCCCAGUAUUU	1.26 ratio
GCCUCCAACAGGCAAAUUCAGGGAGAGAGAGGCUUCAGGGAAUAUAAAUUUAUUUAAUAGUAGUGAUCAUAAAGUAUAAAUUUGAUAUAAUUGAAUAAUUUGUGAGGGGUGAUGAUAAAU	1.32 ratio
CAUUAACACACAAAAUGUCUCCAGGGGGGUAUUAGAUUUGAUUUCUUACAUAUAAAACAAACCAACCAACCAUUUUUAAAGUAGAAGAGGGUUUUAGAUAGUAAAUGAAAUAUUCUUUUU	1.62 ratio
AGAAGCUCAAGGAUUCAGAACUGGUUUUGCAAAUGUCCCAGGCAGAUAUGGAACAAACACUCGUGGUCAGCCCCGACCGUAAUAAACACCAUUAUUUAUUAUACUUAAGGGUAUUGACUU	0.299 ratio

Study 2 — method: universal PBM; form: double-stranded DNA, one strand shown; medium: in vitro; tested at: 600 nM; reading: higher = stronger binding
Target: Sal-like protein 4, full length isoform A (SALL4, Homo sapiens, UniProt Q9UJQ4, residues 1-1053)
Sequence of UniProt Q9UJQ4 (whole entry, looked up): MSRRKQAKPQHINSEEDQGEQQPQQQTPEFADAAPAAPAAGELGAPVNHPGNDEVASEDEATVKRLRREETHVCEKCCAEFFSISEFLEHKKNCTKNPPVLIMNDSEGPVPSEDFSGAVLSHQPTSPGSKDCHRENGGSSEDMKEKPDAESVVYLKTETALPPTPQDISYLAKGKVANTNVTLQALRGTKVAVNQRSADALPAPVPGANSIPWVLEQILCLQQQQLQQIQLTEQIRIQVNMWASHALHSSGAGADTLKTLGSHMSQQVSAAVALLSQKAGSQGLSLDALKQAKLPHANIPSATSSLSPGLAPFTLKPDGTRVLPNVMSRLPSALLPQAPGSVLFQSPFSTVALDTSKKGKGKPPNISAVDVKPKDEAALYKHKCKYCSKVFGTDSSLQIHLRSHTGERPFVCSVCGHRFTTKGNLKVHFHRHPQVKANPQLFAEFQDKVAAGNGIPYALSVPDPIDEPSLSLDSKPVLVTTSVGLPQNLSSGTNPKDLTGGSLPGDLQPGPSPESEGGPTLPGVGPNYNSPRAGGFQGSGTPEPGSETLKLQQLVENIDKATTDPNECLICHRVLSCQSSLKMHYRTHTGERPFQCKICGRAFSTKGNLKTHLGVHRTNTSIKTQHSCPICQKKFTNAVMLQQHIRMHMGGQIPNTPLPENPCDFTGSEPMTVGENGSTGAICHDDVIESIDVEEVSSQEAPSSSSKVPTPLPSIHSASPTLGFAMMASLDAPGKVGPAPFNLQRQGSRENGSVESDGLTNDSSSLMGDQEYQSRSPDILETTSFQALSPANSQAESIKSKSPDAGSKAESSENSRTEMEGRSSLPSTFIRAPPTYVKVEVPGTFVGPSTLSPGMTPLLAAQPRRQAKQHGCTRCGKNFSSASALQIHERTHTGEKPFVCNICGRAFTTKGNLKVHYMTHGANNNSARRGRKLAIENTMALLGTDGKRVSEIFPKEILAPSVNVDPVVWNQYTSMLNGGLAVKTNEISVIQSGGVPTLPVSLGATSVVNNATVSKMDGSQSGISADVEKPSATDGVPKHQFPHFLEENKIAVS
Notes: 8-mer, flanks averaged, mean of replicates
Sequence	E-score
CGCCCTTA	-0.126
CATGACAC	0.144
AAGTTATA	0.376
AACCTCGT	0.0578
CCATGCCG	-0.177
GCGAGATA	0.116
ATGCTTGC	-0.101
GTATAAAA	0.331
GCTTGATA	0.222
CGTCTCTA	-0.161
AGCAATCA	0.106
CTGCCTCA	-0.128
CCCTGTTC	-0.305
GCACAGAC	0.0434
ATCTAGCG	-0.0187
AACGTGCC	-0.256
ACAGTGTC	-0.163
ACCCACCG	-0.164
AACGTGAC	-0.0665
ATCGGTGG	-0.122
CCAGGGGC	-0.425
GGCCAGTA	-0.0821
GGCCTCCC	-0.333
CGCGCCCG	-0.369
AAGTGGAC	-0.0864

Study 3 — method: RNA Bind-n-Seq; form: RNA; medium: in vitro; tested at: 365 nM; baseline: no-protein control; reading: higher = stronger binding
Target: RNA binding protein fox-1 homolog 2, RRM domain, GST-SBP tag (RBFOX2, Homo sapiens, UniProt O43251-10, residues 100-194)
Notes: natural RNA segment, single round, ends assumed
Shared flanks, not repeated: GGGAGUUCUACAGUCCGACGAUC … UGGAAUUCUCGGGUGCCAA
Target sequence (chain): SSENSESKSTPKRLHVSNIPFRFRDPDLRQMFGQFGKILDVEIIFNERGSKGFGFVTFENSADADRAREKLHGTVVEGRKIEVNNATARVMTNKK
Sequence	RBNS enrichment (R)
AUGGAAAAGCUCCCCUUAUCCAACAGAGUUUAAAAGUAGUGACUUGGGUUUUUGCGAGUGCUUUGUUUACUAAGGACUUUGGGGAGGAACCAUGCUAAGCCAUGACCAGU	1.27
CUUUCUAGUUUGGCAGUGCGACUGAGAGAAGAUUCCACACAGGAACAUCUUUCUUCUCCAUCACUCCACGCCUCCAUCCAAGCUCAGUUUCCACUCGCCCACCAGAAGCA	1.22
CAUCUCCAGGAGCUGGCCAGUUAUCUUAGAAAACAACUGAAUGGAAUAUUUUUGUACCUGAUGUUUCCAGAUGUUGGGAAGUUAUCAAUAAAGACUGUUGUUAAAAGGGA	0.686
GGACUCUGAACUCAGAGCAGUCACACUUCCUUGGUUUUUUUAGGUUAGACAUUAACAAACAGCAGGAAAAUGUCACAUAACCUGGAAAGACCGCACUGGAGUUGGGUGUG	0.443
AGCAGAGGCAAACAGGUUUCUUGAGUUCAGGCCAGUCAGGUCUGCAUAAGGAGCUUUAGACCAGUCAAUGAUACAUAGUGAAACCCUACCUCAAAAACAAAACAAAAAAA	0.464
GGAGCAGGAGGAAGUCCACUUCUGUACCGGCAGACAGAGCAUGUGAACACAAAACACAUUUCUAUGGCAUAGUCAACUGAACUUCAUUUUUACAUUUAAUCUAACAUGUU	0.493
AAAGAGAAGCUGCCACAGGUUGUACUUGCUCUGUGAGAUGUUGUAGACAUUCCGUAAGAGAAUCCAGAAUGAUAGCAGGAUCAGGAAAGAAAUGGAGCCAAAUCUGCUCU	1.11
GGGUGCUUCUGUCUCCUGCAGACCACGCCAGGGAGUGCAGACACCACCGUCACACACGCCCCUUUUGUGUUUUGGUUCAAGUUUCUCAGAGCCCCUCAGAGCUUCUACAU	0.3
CUCCAUGUUACCCUCCACUCCUUGGCCCAAACCUCUGAUGGAGAUAGACAUUGUUGGAGAAGUGGGCUGCCUUCCCCAAGUGGGGCACUGCUUAAGCACUUAUUCAGUGG	0.331
GGGUUCCCUCUUCACAGUCCCCGUUCCCACACUUCCUCCACCAUCACUCACUCACUGGUGCUGGCCUAGCCCCAGUUCACUCUGGUGCCACAAUAAACCUGUAUCUAGCU	0.586
ACUAUCCAUUUUGUAAAACGGAUUUAAGGACAAUUAUCAGGUAUAAUUAAAAUUCUGUUGAAGAAGAUAAAGUUUCAGAUAUGCCACUGGCUUGAGGAUUAGCUAAAGGU	0.51
GGGGCAAUUCUCCCUAGUGCCUCUGCACCAGACACCACAAAACCUCAGCCAUGCUGCCGCCGAAGGGUGGCCCCCUCACCGAAUCUCCUUAGGAAGGGUUUUAUACAGAC	0.45

Study 4 — method: EMSA with sequencing; form: double-stranded DNA, one strand shown; medium: in vitro; tested at: 10 and 20 nM; baseline: negative control set to 0; reading: higher = stronger binding
Target: Hepatocyte nuclear factor 3-alpha (Foxa1, Mus musculus, UniProt P35582, residues 1-468, full length assumed)
Notes: whole designed probe, mean of two concentrations, ends assumed
Shared flanks, not repeated: GTGAGCGGTGCCCATTGATGGGGAAC … TTTCACTGGGATCGTGGGGAC
Target sequence (chain): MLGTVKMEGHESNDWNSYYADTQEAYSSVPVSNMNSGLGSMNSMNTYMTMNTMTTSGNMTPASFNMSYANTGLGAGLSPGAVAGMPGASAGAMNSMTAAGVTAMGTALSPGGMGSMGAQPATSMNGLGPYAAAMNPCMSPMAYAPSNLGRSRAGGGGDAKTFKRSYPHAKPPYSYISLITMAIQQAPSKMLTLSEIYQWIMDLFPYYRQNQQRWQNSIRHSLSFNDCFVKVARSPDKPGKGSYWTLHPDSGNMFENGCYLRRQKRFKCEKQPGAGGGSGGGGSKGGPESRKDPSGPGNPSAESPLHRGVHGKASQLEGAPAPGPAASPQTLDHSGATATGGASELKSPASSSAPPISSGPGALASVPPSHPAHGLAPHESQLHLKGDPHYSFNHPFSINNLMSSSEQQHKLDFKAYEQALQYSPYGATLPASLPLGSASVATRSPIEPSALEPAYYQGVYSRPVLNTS
Sequence	normalised bound fraction
CCACTCAGCTGTTTTCTTAAACTTGGTTGAATAACTGGTATTCTTCCTGCTCACAAAGTCTTTGTTAGTGTGCATATTGCAAAACCATCCTAAGTAAACAGTCTGTGTCATCTGTATTAAAGGGAAGTTATGCATGGATTAGTGTATAATAGCATGGGTTAGGGAGAAAAATGAGTCACCAAAGTAGCTGGTT	0.44 ratio
ATCTTCCCCCTCTTCCTTGCCCCACCAGCTCACCTTCCCGGGTTATTTGCACAAAGGAAAATAAATAAAGCCGGCATTCGTTAACCCTCTTCACGCGCATACTGCTGTTTGCTCTGCATCTAACATGGTCCTTACGCGAGGCGTGGCTCCGGGAGAGCAAAGCACCGTGTCAGGCGCATGATCCGGGCTCGCC	0.382 ratio
CCTAGTTAAGAAGAGGAAGATGGAAGTACTAATACAAAGTGTAGCTAAAAGACATTGCTGGGCTTTAACTTCTGCCTCCCATTCTCTGTTAAGTAATCTAGAAAATGGAGGCAAACAAGCTCCCTAGGTAGTGCTAAGCCACACGTTCTGACTGTGAGAAAGAATCTCTTGTGGAGAAAATGAAATAAACATA	0.0624 ratio
TCCATGTAATGAAAGGTGATGAATTTAGCTTGCTTTCTCTGCTTCCTTCTTTCAGTCCCTGCCAGTCACATATTTATTTACTTCTTCTTCTATTATTTACTTTTAGAAATTTAAATAATATATTTCAACATCTATTTCCTGACTTCTTGTTGGATCATTGCCTGTACAAAAATGATTTTGTTTTATTCTCATA	0.449 ratio
ATCTTCCCCCTCTTCCTTGCCCCACCAGCTCACCTTCCCGGGTTATTTGCAGATAGGAAAATAAATAAAGCCGGCATTCGTTAACCCTCTTCACGCGCATACTGCTGTTTGCTCTGGATCTAACATGGTCCTTTGGCGAGGCGTGGCTCCGGGAGAGCAAAGCACCGTGTCAGGGCCATGATCCGGGGTGGCC	0.352 ratio
ACCAGTGCTATCTTCTGCCAACACCAGTAACAGCAGGCAGTAGGACTCCCTGAATAAACATTTTGAAGGCAAAGGTAAAGAAGGGTGGAATAAGCAATTTAGAAGTCACCATTCCTCCTGGAGTAAACCATTCCCTCCTCTGATTGCCTGAAGCTAACCATGAGACAGCAGGACTGGCTACATAATTTTCCAG	0.216 ratio
ATCTTCCCCCTCTTCCTTGCCCCACCAGCTCACCTTCCCGGGTTATTTGCAGATAGGAAAATAAATAAAGCCGGCATTCGTTAACCCTCTTCACGCGCATACTGCTGTTTGCTCTGGATCGATGAATCATGTTTGGCGACGCCAGGCTCCGGGAGAGCAAAGCACCGTGTCAGGGCCATGATCCGGGGTGGCC	0.382 ratio
CCTAGTTAAGAAGAGGAAGATGGAAGTACTAATACAAAGTGTAGCTAAAAGACATTGCTGGGCTTTAACTTCTGCCTCCCATTCTCTGTTAAGTAAACAAGAAAATGGAGGCAAACAAGCTCCCTAGGTAGTGCTAAGCCACACGTTCTGACTGTGAGAAAGAATCTCTTGTGGAGAAAATGAAATAAACATA	0.549 ratio

Study 5 — method: RNA Bind-n-Seq; form: RNA; medium: in vitro; tested at: not given; notes: 4-mer, random 30-nt RNA, single round; together with: RocA, ADP, phosphate; baseline: input library; reading: higher = stronger binding
Target: ATP-dependent RNA helicase DDX3X, helicase core (DDX3X, Homo sapiens, UniProt O00571, residues 132-607)
Sequence of UniProt O00571 (132-607, looked up): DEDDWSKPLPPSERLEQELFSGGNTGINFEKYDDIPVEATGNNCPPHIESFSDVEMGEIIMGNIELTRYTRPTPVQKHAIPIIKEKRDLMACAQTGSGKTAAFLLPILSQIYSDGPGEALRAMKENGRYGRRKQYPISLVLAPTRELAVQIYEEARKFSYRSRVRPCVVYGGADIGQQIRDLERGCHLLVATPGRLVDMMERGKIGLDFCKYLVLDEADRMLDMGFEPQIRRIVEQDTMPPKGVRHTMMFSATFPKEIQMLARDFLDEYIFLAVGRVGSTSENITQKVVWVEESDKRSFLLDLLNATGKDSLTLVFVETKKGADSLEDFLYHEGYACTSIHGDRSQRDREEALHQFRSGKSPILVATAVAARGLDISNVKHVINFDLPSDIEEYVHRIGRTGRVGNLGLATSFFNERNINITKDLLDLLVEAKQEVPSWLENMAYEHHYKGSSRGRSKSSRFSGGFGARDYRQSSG
Sequence	4-mer enrichment
CAUA	0.743 fold
GCAG	0.913 fold
CGCA	0.714 fold
ACUG	0.76 fold
CAAC	0.705 fold
AGGG	1.64 fold
GGUU	1.01 fold
GUAA	1.06 fold
ACUA	0.718 fold
UGAC	0.717 fold
GAGG	1.94 fold
CCAG	0.798 fold
GAUA	0.941 fold
UUGU	1.11 fold
GAAG	1.59 fold
CCCU	0.834 fold
AAAG	1.22 fold
CUCA	0.614 fold
UCCG	0.793 fold
AAGC	0.822 fold
CGGU	0.811 fold
GCAU	0.764 fold
CGUA	0.83 fold
GACG	0.943 fold
UUGA	1.18 fold

Some of these lines once more (study 2):
Sequence	E-score
GGCCTCCC	-0.333
CCAGGGGC	-0.425
CGTCTCTA	-0.161
AGCAATCA	0.106
AACGTGAC	-0.0665
ATGCTTGC	-0.101
CGCGCCCG	-0.369
CATGACAC	0.144
